Assay results pooled from the literature.
Cell line: PANC-1

COC1=C(OC)C(O)C(CC=C(C)CCC=C(C)CCC=C(C)C(=O)O)C(C)C1=O (centres unmarked)
IC50 (cell growth or viability, MTS; 48 h): > 25 µM

N=C(N/N=C/c1ccc(Cl)cc1)N/N=C/c1ccc(Cl)cc1
IC50 (cell growth or viability, crystal violet; 72 h): 59.1 µM

CCCCCCCCCCCCCCOC(=O)Nc1ccn([C@@H]2O[C@H](CO)[C@@H](O)C2(F)F)c(=O)n1
IC50 (cell growth or viability, MTT; 48 h): 12 µM

CC1(C)c2ccccc2-c2ccc(-c3cn(-c4ccc(-c5cc(-c6ccccn6)nc(-c6ccccn6)c5)cc4)nn3)cc21
IC50 (cell growth or viability, MTS; 72 h): 1.87 µM

CCCCCCCCCCCCCCCC(=O)OCCN1CCN(c2cc(Nc3ncc(C(=O)Nc4c(C)cccc4Cl)s3)nc(C)n2)CC1
IC50 (cell growth or viability, MTT; 72 h): 0.72 µM

N=C(N/N=C/c1ccc[nH]1)N/N=C/c1ccc[nH]1
IC50 (cell growth or viability, crystal violet; 72 h): 4.1 µM

Cc1nc(Nc2ncc(C(=O)Nc3c(C)cccc3Cl)s2)cc(N2CCN(CCOC(=O)[C@@H](N)CCC(=O)O)CC2)n1
IC50 (cell growth or viability, MTT; 72 h): 64.1 µM

CCCCCCCCn1c2ccccc2c2cc(-c3cn(-c4ccc(-c5cc(-c6ccccn6)nc(-c6ccccn6)c5)cc4)nn3)ccc21
IC50 (cell growth or viability, MTS; 72 h): 3.59 µM

COCCOc1cc2ncnc(Nc3cccc(-c4cn(-c5ccccc5S(N)(=O)=O)nn4)c3)c2cc1OCCOC
IC50 (cell proliferation, CCK-8; 72 h, hypoxia): 57.1 µM

N=C(N/N=C/c1ccc2ccc3cccc4ccc1c2c34)N/N=C/c1ccc2ccc3cccc4ccc1c2c34
IC50 (cell growth or viability, crystal violet; 72 h): 240 µM

CCCCn1cc(C(=O)O)c(=O)c2cc(F)c(Nc3ccc(OC)cc3OC)c(N)c21
IC50 (cell growth or viability, SRB; 72 h): > 200 µg/mL

N=C(N/N=C/c1ncc[nH]1)N/N=C/c1ncc[nH]1
IC50 (cell growth or viability, crystal violet; 72 h): 9.7 µM

CCOC(=O)C1=CN([C@@H]2O[C@H](CO)[C@@H](O)[C@H]2O)C=CC1
IC50 (cell growth or viability, CCK-8): 121 µM

C=C1CC[C@@H]2O[C@@]2(C)CC[C@H]2[C@H]1C[C@]2(C)C(=O)/C=C/C(C)(O)COC(C)=O (some centres unmarked)
IC50 (cell growth or viability, CCK-8; 72 h): 5.24 µM

Cc1nc(Nc2ncc(C(=O)Nc3c(C)cccc3Cl)s2)cc(N2CCN(CCOC(=O)[C@@H](N)CCCNC(=N)N)CC2)n1
IC50 (cell growth or viability, MTT; 72 h): 2.06 µM

C=C1CC[C@@H]2O[C@@]2(C)CC[C@H]2[C@H]1C[C@]2(C)C(=O)/C=C/C(C)(O)CO (some centres unmarked)
IC50 (cell growth or viability, CCK-8; 72 h): 6.03 µM

N=C(N/N=C/c1cc2ccccc2c2ccccc12)N/N=C/c1cc2ccccc2c2ccccc12
IC50 (cell growth or viability, crystal violet; 72 h): 151 µM

C=C1CCC(=O)C(C)CCC2C1CC2(C)C(=O)C=CC(C)(C)O (centres unmarked)
IC50 (cell growth or viability, CCK-8; 72 h): 7.25 µM

N=C(N/N=C/c1ccc2ccccc2c1)N/N=C/c1ccc2ccccc2c1
IC50 (cell growth or viability, crystal violet; 72 h): 105 µM

O=[N+]([O-])c1ccc(/N=N/c2ccc(O)c(O)c2)cc1
IC50 (cell growth or viability, resazurin; 72 h): 2.52 µM

A few entries again:
N=C(N/N=C/c1ncc[nH]1)N/N=C/c1ncc[nH]1
IC50 (cell growth or viability, crystal violet; 72 h): 9.7 µM

CCOC(=O)C1=CN([C@@H]2O[C@H](CO)[C@@H](O)[C@H]2O)C=CC1
IC50 (cell growth or viability, CCK-8): 121 µM

C=C1CC[C@@H]2O[C@@]2(C)CC[C@H]2[C@H]1C[C@]2(C)C(=O)/C=C/C(C)(O)COC(C)=O (some centres unmarked)
IC50 (cell growth or viability, CCK-8; 72 h): 5.24 µM
